# Results gathered from unrelated publications.
# Numbers after ± are the reported error.
SMILES,assay,test system,conditions,Cmax
Cc1nc(-c2ccc(OCC(C)C)c(C#N)c2)sc1C(=O)O,,"healthy men, plasma","oral, 40 mg once daily, day 14, arithmetic mean, with: verinurad 10 mg",664 ng/mL
Nc1cc(F)ccc1NC(=O)c1ccc(CNC(=O)/C=C/c2cccnc2)cc1,,"Japanese patients, plasma","oral, 30 mg twice weekly, cycle 1 day 25, arithmetic mean",240 ng/mL
NC(=O)c1cnc2[nH]ccc2c1N[C@@H]1[C@@H]2CC3C[C@H]1C[C@@](O)(C3)C2,,"healthy Caucasian men, plasma","oral, 200 mg, single dose fasted",381 ng/mL
CN[C@H](CC(C)C)C(=O)N[C@H]1C(=O)N[C@@H](CC(N)=O)C(=O)N[C@H]2C(=O)N[C@H]3C(=O)N[C@H](C(=O)N[C@H](C(=O)O)c4cc(O)cc(O)c4-c4cc3ccc4O)[C@H](O)c3ccc(c(Cl)c3)Oc3cc2cc(c3O[C@@H]2O[C@H](CO)[C@@H](O)[C@H](O)[C@H]2O[C@H]2C[C@](C)(N)[C@H](O)[C@H](C)O2)Oc2ccc(cc2Cl)[C@H]1O,microdialysis,"pig (Danish Landrace), cancellous bone","iv infusion, 1000 mg over 100 min, with: meropenem co-administered",14000 ng/mL
CC[C@H](C)[C@@H]1NC(=O)[C@H](Cc2ccc(O)cc2)NC(=O)[C@@H](N)CSSC[C@@H](C(=O)N2CCC[C@H]2C(=O)N[C@@H](CC(C)C)C(=O)NCC(N)=O)NC(=O)[C@H](CC(N)=O)NC(=O)[C@H](CCC(N)=O)NC1=O,,"human, saliva","intranasal, 20 IU",130 ng/mL
Cc1ccc(Sc2ccccc2N2CCNCC2)c(C)c1,,"healthy men, plasma","oral, 10 mg once daily, fed, day 1",4.3 ng/mL
CC(C)C(=O)OCC(=O)[C@@]12O[C@H](C3CCCCC3)O[C@@H]1C[C@H]1[C@@H]3CCC4=CC(=O)C=C[C@]4(C)[C@H]3[C@@H](O)C[C@@]12C,,"children with asthma, serum","inhalation with spacer, 80 µg, day 7, steady state",0.096 ± 0.007 ng/mL
CC(C)c1nc(CN(C)C(=O)N[C@H](C(=O)N[C@@H](Cc2ccccc2)C[C@H](O)[C@H](Cc2ccccc2)NC(=O)OCc2cncs2)C(C)C)cs1,,"healthy male, plasma","600 mg single dose, geometric mean, with: amenamevir 400 mg",13200 ng/mL
C[C@H]1CN(C(=O)CC#N)[C@]12CCN(c1ncnc3[nH]ccc13)C2,,"human, plasma","topical, 5 g of 3% ointment",7.42 ng/mL
Nc1nc(NC2CC2)c2ncn([C@H]3C=C[C@@H](CO)C3)c2n1,,"HIV-infected children and adolescents, Tanner stage 1-2, plasma","oral, 8 mg/kg",3500 ng/mL
CCC1=C(C)CN(C(=O)NCCc2ccc(S(=O)(=O)NC(=O)N[C@H]3CC[C@H](C)CC3)cc2)C1=O,,"healthy Korean male volunteers, plasma","oral, 4 mg single dose, mean",227 ng/mL
Cc1ccc(NC(=O)c2ccc(CN3CCN(C)CC3)cc2)cc1Nc1nccc(-c2cncc(-c3oncc3C)c2)n1,,"healthy volunteers, plasma","oral, 25.0 mg once daily, day 7, 7-day dosing, mean",1770 ng/mL
CCOc1ccc(Cc2cc([C@@H]3S[C@H](CO)[C@@H](O)[C@H](O)[C@H]3O)c(OC)cc2C)cc1,,"Japanese type 2 diabetes patients, plasma","oral, 5 mg single dose, eGFR 60-89 mL/min/1.73 m^2",244 ± 53.4 ng/mL
CCOc1ccc2cc(-c3nn(CC4CCN(C)CC4)c4ncnc(N)c34)ccc2c1,LC-MS/MS,"Neospora caninum-infected pregnant sheep, plasma","oral, 100 mg/kg, after dose 2",2100 ± 700 nM
N[C@@H](CC(=O)N1CCn2c(nnc2C(F)(F)F)C1)Cc1cc(F)c(F)cc1F,,"healthy Korean subjects, plasma","oral, 100 mg single dose, ABCB1 G2677T/A AA",585 ng/mL
Cc1cc(Nc2cc3ncccc3c(N[C@@H]3C[C@H]4CC[C@@H](C3)N4CCC#N)n2)n[nH]1,,"pregnant rabbit, maternal plasma","oral, 10 mg/kg/day, gestation day 7",7.67 ng/mL

# For quick reference, copied from above:
SMILES,assay,test system,conditions,Cmax
CC[C@H](C)[C@@H]1NC(=O)[C@H](Cc2ccc(O)cc2)NC(=O)[C@@H](N)CSSC[C@@H](C(=O)N2CCC[C@H]2C(=O)N[C@@H](CC(C)C)C(=O)NCC(N)=O)NC(=O)[C@H](CC(N)=O)NC(=O)[C@H](CCC(N)=O)NC1=O,,"human, saliva","intranasal, 20 IU",130 ng/mL
Cc1ccc(Sc2ccccc2N2CCNCC2)c(C)c1,,"healthy men, plasma","oral, 10 mg once daily, fed, day 1",4.3 ng/mL
